# Measurements of several laboratories.
# Compare with care: the assays were run in different laboratories. Numbers after ± are the reported error.
# Organism: Influenza A virus
SMILES,assay,system,conditions,how to read,measurement,result
CCOC(=O)C1=C[C@@H](OC(CC)CC)[C@H](NC(C)=O)[C@@H](N)C1,,"A/NWS/33 (H1N1), BALB/c mouse, bronchoalveolar lavage fluid and serum","oral, 0.2 mg/mouse/day, day 14",relative to: untreated infected control,neutralizing antibody titre,decreased
COc1ccc2cc1Oc1ccc(cc1)C[C@H]1c3c(cc4c(c3Oc3cc5c(cc3OC)CCN(C)[C@@H]5C2)OCO4)CCN1C,viral replication,"MDCK, A/Fort Monmouth/1/1947 (H1N1)",48 h,,IC50,3.1 ± 0.72 µM
CCOC(=O)C1=C[C@@H](OC(CC)CC)[C@H](NC(C)=O)[C@@H](N)C1,,"A/WSN/33 H1N1, mouse, lung","dose not given, 24 h",,lung virus titre,5.15 log10 TCID50/mL
NC(=O)c1ncn([C@@H]2O[C@H](CO)[C@@H](O)[C@H]2O)n1,"cytopathic effect, neutral red","MDCK, A/California/07/2009 (H1N1)pdm09",,,EC50,7.3 µg/mL
COc1ccc2cc1Oc1ccc(cc1)C[C@H]1c3cc(c(OC)cc3CCN1C)Oc1c(OC)c(OC)cc3c1[C@@H](C2)N(C)CC3,viral replication,"MDCK, A/Fort Monmouth/1/1947 (H1N1)",48 h,,IC50,5.37 ± 0.94 µM
CC(=O)N[C@H]1[C@H]([C@H](O)[C@H](O)CO)OC(C(=O)O)=C[C@@H]1O,viral replication,A/Paris/0497/2007 (H1N1),72 h,,EC50,20 µM
CCOC(=O)C1=C[C@@H](OC(CC)CC)[C@H](NC(C)=O)[C@@H](N)C1,viral replication,"MDCK, A/Fort Monmouth/1/1947 (H1N1)",,,IC50,2.01 µg/mL
COc1ccc2cc1Oc1ccc(cc1)C[C@H]1c3cc(c(OC)cc3CCN1C)Oc1c(O)c(OC)cc3c1[C@H](C2)N(C)CC3,viral replication,"MDCK, A/Fort Monmouth/1/1947 (H1N1)",48 h,,IC50,4.96 ± 1.27 µM
COC(=O)OCOc1c2n(ccc1=O)N([C@@H]1c3ccccc3SCc3c1ccc(F)c3F)[C@@H]1COCCN1C2=O,viral replication,,,,EC50,0.00304 µM
NC12CC3CC(CC(C3)C1)C2,"viral replication, visual CPE score","MDCK, H1N1",,,EC50,89 µM
NC(=O)c1ncn([C@@H]2O[C@H](CO)[C@@H](O)[C@H]2O)n1,viral replication,"MDCK, A/Fort Monmouth/1/1947 (H1N1)",,,IC50,2.06 µg/mL
COC(=O)N[C@H](C(=O)N1CCC[C@H]1c1ncc(-c2ccc(-c3ccc(-c4cnc([C@@H]5CCCN5C(=O)[C@@H](NC(=O)OC)C(C)C)[nH]4)cc3)cc2)[nH]1)C(C)C,viral replication,MDBK,,,EC50,> 36 µM
